Published values from different studies.
A part holds a random share of what one study measured.

Set 1 — method: RNAcompete; molecule type: RNA; matrix: in vitro; tested at: 20 nM; notes: 7-mer, probes averaged, single round; baseline: mean of 7-mers; reading: higher = stronger binding
Target: PABPC1L2, full length, GST fusion (mouse, UniProt A0ABA7IW68)
Residues (chain): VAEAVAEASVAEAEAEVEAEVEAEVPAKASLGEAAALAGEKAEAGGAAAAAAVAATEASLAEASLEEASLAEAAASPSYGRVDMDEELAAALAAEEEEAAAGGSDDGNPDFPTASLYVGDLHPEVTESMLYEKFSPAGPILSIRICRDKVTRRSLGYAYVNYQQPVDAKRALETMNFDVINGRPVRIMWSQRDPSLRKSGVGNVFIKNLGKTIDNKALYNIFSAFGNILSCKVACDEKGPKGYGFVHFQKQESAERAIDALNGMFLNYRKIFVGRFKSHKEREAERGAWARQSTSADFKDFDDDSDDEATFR
Oligonucleotide | 7-mer Z-score
UUUGUAU | -0.217
GAGUGCA | 0.046
UAACAAA | 1.04
UCGCAUA | -0.302
ACGGGGU | -0.115
AUGGCCC | 0.095
UAUCAAU | -0.11
GACACUA | -0.0464
CUAACCA | -0.0536
UACGACC | -0.246
UUACUAG | -0.151
GGUAGCG | 0.00436

Set 2 — method: universal PBM; molecule type: double-stranded DNA, one strand shown; matrix: in vitro; tested at: 600 nM; reading: higher = stronger binding
Target: Sal-like protein 4, full length isoform A (SALL4, Homo sapiens, UniProt Q9UJQ4, residues 1-1053)
UniProt Q9UJQ4, sequence (whole entry, looked up): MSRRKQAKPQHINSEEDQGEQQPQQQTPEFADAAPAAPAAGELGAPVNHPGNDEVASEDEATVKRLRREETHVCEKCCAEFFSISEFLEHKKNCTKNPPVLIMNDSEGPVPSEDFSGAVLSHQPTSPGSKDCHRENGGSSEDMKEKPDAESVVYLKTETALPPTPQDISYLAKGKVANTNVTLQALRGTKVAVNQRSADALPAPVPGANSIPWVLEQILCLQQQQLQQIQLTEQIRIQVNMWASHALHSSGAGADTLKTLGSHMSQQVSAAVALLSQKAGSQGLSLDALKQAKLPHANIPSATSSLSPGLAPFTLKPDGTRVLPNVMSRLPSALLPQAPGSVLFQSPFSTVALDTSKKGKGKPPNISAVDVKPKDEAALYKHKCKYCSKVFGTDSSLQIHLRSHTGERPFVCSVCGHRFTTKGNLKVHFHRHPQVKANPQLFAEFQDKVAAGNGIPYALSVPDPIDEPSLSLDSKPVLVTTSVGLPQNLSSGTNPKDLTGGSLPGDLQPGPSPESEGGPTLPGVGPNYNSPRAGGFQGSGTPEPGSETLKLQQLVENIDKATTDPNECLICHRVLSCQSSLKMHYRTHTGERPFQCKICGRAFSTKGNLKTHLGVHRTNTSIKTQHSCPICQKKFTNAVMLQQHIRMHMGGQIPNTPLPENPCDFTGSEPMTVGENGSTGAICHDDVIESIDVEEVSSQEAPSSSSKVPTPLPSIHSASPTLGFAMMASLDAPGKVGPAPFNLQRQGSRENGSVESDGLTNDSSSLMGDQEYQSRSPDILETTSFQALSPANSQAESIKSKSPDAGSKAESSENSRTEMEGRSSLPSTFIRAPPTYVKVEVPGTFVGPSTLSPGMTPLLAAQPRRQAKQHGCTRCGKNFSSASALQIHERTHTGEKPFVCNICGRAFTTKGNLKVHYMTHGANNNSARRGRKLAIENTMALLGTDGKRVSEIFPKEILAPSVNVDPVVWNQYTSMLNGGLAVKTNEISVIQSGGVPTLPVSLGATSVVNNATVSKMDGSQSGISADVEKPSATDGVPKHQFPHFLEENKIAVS
Notes: 8-mer, flanks averaged, mean of replicates
Oligonucleotide | E-score
CGCTCCCG | -0.204
CCGATCCG | -0.336
ATACCAAT | 0.167
ATATGGCC | 0.0491
CTGAGTTA | 0.021
GGGGGATA | -0.0475
ACCGATAC | 0.0675
GGTCGACA | -0.222
ATCAGCCG | -0.287
CGACGACA | -0.11
ACTTGGCG | -0.108
ATAGGCTA | 0.114

Set 3 — method: protein binding microarray; molecule type: double-stranded DNA, one strand shown; matrix: in vitro; tested at: not given; baseline: not given; reading: higher = stronger binding
Target: Histone acetyltransferase KAT6A, both winged helices, GST fusion (KAT6A, Homo sapiens, UniProt Q92794, residues 1-181)
Notes: 8-mer, flanks averaged, mean of 2 arrays, mostly near background
Target sequence (chain): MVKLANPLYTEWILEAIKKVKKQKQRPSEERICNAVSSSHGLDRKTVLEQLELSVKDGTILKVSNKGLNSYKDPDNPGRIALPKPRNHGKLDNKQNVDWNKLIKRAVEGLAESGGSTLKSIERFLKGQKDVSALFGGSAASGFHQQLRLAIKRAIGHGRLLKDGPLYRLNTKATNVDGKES
Oligonucleotide | E-score
GTAGGGCA | -0.0797
CCTGCACA | -0.227
ACTTTTAC | 0.00169
GTAAGCAC | -0.0804
CGATCACA | -0.0683
GGGACCAC | 0.0351
CTAGGCGC | 0.24
GCAGCGGC | 0.29

Other studies, line by line
Substance | target | assay | system | conditions | how to read | quantity | result
PhoQ, residues 284 288 289 292 302 303 SSTLSG | PhoP, residues 12 14 15 18 19 HEGLL (Escherichia coli, UniProt P23836) | Sort-seq, refers to: YFP reporter | E. coli | PhoQ-PhoP variant library, added: 10 µM Mg2+ | baseline: high Mg2+ state, higher = stronger signaling | fold induction | 3.97

Excerpt of the above (set 1):
Oligonucleotide | 7-mer Z-score
AUGGCCC | 0.095
CUAACCA | -0.0536
UCGCAUA | -0.302
GACACUA | -0.0464
UACGACC | -0.246
